# Published values pooled from the literature.
# Compare with care: the assays were run in different laboratories.
# Target: Cyclin-dependent kinase 11B (CDK11B, Homo sapiens, UniProt P21127)
Structure (SMILES),assay,conditions,scale,measurement,value
CNC1C[S+]2CC[S+]3CC[S+](C1)[Ru-4]321([N]=C=S)[n]2c3ccc(OC)cc3c3c4c(c5cc(F)c[n+]1c5c32)C(=O)NC4=O (stereo not drawn),KinomeScan,0.1 µM,reference: untreated,remaining binding,95%
Cc1cnc2nc1Nc1cccc(c1)COC/C=C/COCc1cc(ccc1OCCN1CCOCC1)N2,"binding, competition with immobilised ligand",0.1 µM,,remaining binding,98%
CNC(=O)C1CCN(c2cc(C)c(F)cc2NC(=O)c2ccc(-c3cc(O)ccc3C)c(C)c2)CC1,"binding, competition with immobilised ligand",1 µM,,remaining binding,93%
COc1cc(Nc2nccc(-c3cnn4nc(OC)ccc34)n2)cc(C(F)(F)F)c1,"binding, competition with immobilised ligand",1 µM,,remaining binding,90%
Cc1ccc(-c2c(/C=C(\C#N)C(=O)NC(C)C)n(CCCO)c3ncnc(N)c23)cc1,"cell-free assay, competition with immobilised ligand",1 µM,,remaining binding,100%
CC(C)=CC1OC(C)(C)C2C=C3C(=O)C(Cl)=CC(O)C3C3C(O)C4OC4C(=O)C132 (stereo not drawn),"cell-free assay, competition with immobilised ligand",10 µM,,remaining binding,77%
C=CC(=O)N1CCc2ccc(-n3c(=O)ccc4cnc5ccc(-c6cnn(C)c6)cc5c43)cc21,KINOMEscan,1 µM,reference: DMSO control,remaining binding,100%
Nc1ncc2c(n1)-c1c([nH]c3ccc(C4=CCOCC4)cc13)CCC2,"binding, competition with immobilised ligand",1 µM,,remaining binding,100%
COc1c(Cl)cccc1Nc1c(-c2ccncc2C#C[C@@]2(C)CCCN2C(=O)/C=C/CN(C)C)[nH]c2c1C(=O)NCC2,"binding, competition with immobilised ligand",3 µM,,remaining binding,100%
CCN1CCN(Cc2ccc(C(=O)Nc3ccc(C)c(NCc4cnc5[nH]ccc5c4OC)c3)cc2C(F)(F)F)CC1,"binding, competition with immobilised ligand",1 µM,,remaining binding,98%
COc1cc(Nc2nc(C)cc(-c3cnn4nc(OC)ccc34)n2)cc(C(F)(F)F)c1,inhibitor,"1 µM, CDC2L1",reference: control,remaining activity,100%
C=CC(=O)N1CCCC(n2c(=O)c3ncccc3n(Cc3ccc(Oc4ccccc4)cc3)c2=O)C1 (stereo not drawn),"cell-free assay, competition with immobilised ligand",1 µM,,remaining binding,100%

# Excerpt of the above:
Structure (SMILES),assay,conditions,scale,measurement,value
CCN1CCN(Cc2ccc(C(=O)Nc3ccc(C)c(NCc4cnc5[nH]ccc5c4OC)c3)cc2C(F)(F)F)CC1,"binding, competition with immobilised ligand",1 µM,,remaining binding,98%
COc1cc(Nc2nc(C)cc(-c3cnn4nc(OC)ccc34)n2)cc(C(F)(F)F)c1,inhibitor,"1 µM, CDC2L1",reference: control,remaining activity,100%
